# Published values of several laboratories.
# Numbered parts are unrelated; each lists some results of a single study.

# Sample 1 — technique: universal PBM; molecule type: double-stranded DNA, one strand shown; matrix: in vitro; concentration: 600 nM; reading: higher = stronger binding
# Target: Sal-like protein 4, full length isoform A (SALL4, Homo sapiens, UniProt Q9UJQ4, residues 1-1053)
# Chain of UniProt Q9UJQ4 (whole entry, looked up): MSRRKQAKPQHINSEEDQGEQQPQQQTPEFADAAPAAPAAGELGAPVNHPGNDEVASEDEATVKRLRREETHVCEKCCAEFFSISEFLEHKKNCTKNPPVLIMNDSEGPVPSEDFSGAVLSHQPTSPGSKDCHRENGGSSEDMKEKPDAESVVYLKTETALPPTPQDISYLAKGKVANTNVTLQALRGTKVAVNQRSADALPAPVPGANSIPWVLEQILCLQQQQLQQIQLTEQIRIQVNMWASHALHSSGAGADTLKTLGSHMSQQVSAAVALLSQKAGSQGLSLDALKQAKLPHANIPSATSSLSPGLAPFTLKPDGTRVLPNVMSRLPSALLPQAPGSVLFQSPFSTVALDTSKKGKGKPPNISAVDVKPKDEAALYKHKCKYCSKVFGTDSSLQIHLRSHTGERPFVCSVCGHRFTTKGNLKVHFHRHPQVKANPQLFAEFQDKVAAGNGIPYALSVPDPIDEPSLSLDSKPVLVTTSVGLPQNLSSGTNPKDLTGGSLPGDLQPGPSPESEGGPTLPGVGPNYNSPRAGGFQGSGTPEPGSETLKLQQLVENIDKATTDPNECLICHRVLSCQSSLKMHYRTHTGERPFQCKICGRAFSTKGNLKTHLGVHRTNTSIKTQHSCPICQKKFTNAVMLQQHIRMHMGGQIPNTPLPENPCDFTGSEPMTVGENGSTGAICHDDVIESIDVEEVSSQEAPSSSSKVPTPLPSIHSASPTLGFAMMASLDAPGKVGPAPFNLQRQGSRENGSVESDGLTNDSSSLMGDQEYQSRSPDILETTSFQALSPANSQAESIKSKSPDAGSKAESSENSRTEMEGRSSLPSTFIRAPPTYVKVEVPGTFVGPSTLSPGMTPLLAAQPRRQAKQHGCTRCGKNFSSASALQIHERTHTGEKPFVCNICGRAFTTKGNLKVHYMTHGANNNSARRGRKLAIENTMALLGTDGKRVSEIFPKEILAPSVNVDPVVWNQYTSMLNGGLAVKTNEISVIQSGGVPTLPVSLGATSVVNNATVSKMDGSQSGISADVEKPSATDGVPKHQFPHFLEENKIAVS
# Notes: 8-mer, flanks averaged, mean of replicates
Oligonucleotide,E-score
ACCCCGAT,-0.164
ACGAGCGC,-0.206
CTGTGATA,0.134
GTGCTCGA,-0.183
CCGTTAAC,-0.12
CCAATTAG,0.142
CAGACCAA,-0.0353
GCCCTCAC,-0.216
ACAGGACG,-0.176
ATGTGGGA,0.0253
GCTTTGAC,-0.0443
GAGCTAGA,-0.033
GCACGAAC,-0.065
CTCGCCAA,-0.0566
CATGCGGA,-0.244
AATACCAT,0.298
AATGCCGA,-0.0379
GAGGTTGA,0.061
ATCTAAGG,0.0121
GGTAAGTA,0.141
ACTTTCGA,0.0989
CCCGCGCG,-0.274
CTCGCCCC,-0.365
CGGTTGAA,0.00669
GCACTAAA,0.159

# Sample 2 — technique: competition protein-binding microarray; molecule type: double-stranded DNA, one strand shown; matrix: in vitro; concentration: 2 µM; with: Pho4 competitor, 0.05 µM; reading: higher = stronger binding; all sequences stand within: … GTCTTGATTCGCTTGACGCTGCTG
# Target: Centromere-binding protein 1, full length, His-tagged (CBF1, Saccharomyces cerevisiae, UniProt P17106, residues 1-351)
# Chain of UniProt P17106 (whole entry, looked up): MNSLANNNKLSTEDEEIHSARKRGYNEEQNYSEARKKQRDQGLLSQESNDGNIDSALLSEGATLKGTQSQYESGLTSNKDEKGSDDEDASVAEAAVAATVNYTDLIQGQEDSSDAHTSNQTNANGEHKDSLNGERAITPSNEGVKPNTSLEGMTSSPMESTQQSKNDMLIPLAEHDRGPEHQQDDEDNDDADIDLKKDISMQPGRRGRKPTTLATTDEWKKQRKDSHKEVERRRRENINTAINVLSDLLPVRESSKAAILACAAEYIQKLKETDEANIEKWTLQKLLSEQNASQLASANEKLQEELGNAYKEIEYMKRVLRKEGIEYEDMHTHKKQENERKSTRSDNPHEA
# Notes: whole 60-bp probe, lowest competitor level
Oligonucleotide,fluorescence intensity [a.u.]
ATTCATTCAAGCTAGCAAACTTAGATCTCAAAAAAT,68.4
CATACCCAACCTTGTCACAGTACTTAAGATATTTGT,76.8
AAAAGAGGTTCGAGTCACGTGATGGAGATTACCCGC,21900
GTCAGAGTCGTTGTTCTCGTGCTTTTCCGTAGCCTC,100
AAATTACTAAGTTGCAATGTGGGTGACGCCGTATGA,73.9
TGTTACGTAATAAGCAACGTGCAAACGCATTTTTTG,118
CGTCCTAGCGATTTCCACGTGTTTTCCATGAGGAAG,811
CGGGGTTAAGTTTTTCACGTGTTCTGCTTGCAGCAG,816
AAATTACTAAGTTGTGCCGTGGGTGACGCCGTATGA,80.6
GCTATTCGTTTTATAAATGAAGTTCTTTCCACAAGT,88.2
ATCTATATACATATTTATATATATTATTAGAACTTT,95.1
GTCATCGACCTTGAGCATGTGGTAGACTACATAATG,129
TGATATTCTGGCCGTCACGTCTTCTTTGTTTTCTTT,124
GTCTTGTCTCATTGTTCGGTGGGTGTCCCCACTTCA,65.5
GCACCATTTGCCCATCACGTCCAACGGTAGTGGTCC,70.5
CTTTCCCGATCTTGTCACAAGACTTTAGCACATTTG,136
CCAATTGATGGTCTACACGTTGTTTCAAGTGCATAC,116
GTCTTGTCTCATTGTCACCGAACTTTCCCCACTTCA,94.5
AGAAACGGCATCTCTCACCTGATTGTTCTCAAGATT,105
AAGAAGAGGCAGATTACCGTGATGGTATAGAGCCCA,62.1
GTCTTGTCTCATTTTCACGTGAGCTTCCCCACTTCA,839
AAAATCCATTTTTAAAACGTGTGAATGTTTTCCCTG,139
CATACCCAACCTTGTGGAGTGGGTGAAGATATTTGT,54.1
CTTTCCCGATCTTGTCACGATACTTTAGCACATTTG,259
CGGGGTTAAGTTTGTCACCCAACTTGCTTGCAGCAG,69.9

# Sample 3 — technique: RNA Bind-n-Seq; molecule type: RNA; matrix: in vitro; concentration: 365 nM; reference: no-protein control; reading: higher = stronger binding
# Target: RNA binding protein fox-1 homolog 2, RRM domain, GST-SBP tag (RBFOX2, Homo sapiens, UniProt O43251-10, residues 100-194)
# Notes: natural RNA segment, single round, ends assumed
# All sequences stand within: GGGAGUUCUACAGUCCGACGAUC … UGGAAUUCUCGGGUGCCAA
# Residues (chain): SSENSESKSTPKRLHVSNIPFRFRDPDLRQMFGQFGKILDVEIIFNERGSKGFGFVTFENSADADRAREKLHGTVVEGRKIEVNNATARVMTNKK
Oligonucleotide,RBNS enrichment (R)
CCUGCCCAGGGUAGGCCUGGCAUGAGGGGUUAGGUCAGCCAAUGUCAGCUGCUUCUCUUGGGGCCCUCUCAGAGUCUAUCUCCCCAAGACAGGAAGGGAAAAGCAAAUUU,0.355
GGAGCCACGGCCCCAGUAAGUAAUUUUCCAAGUUGAUAGGCUCGUGAAAGCUGAACAUUACCGAUAAGGCACAGGUUCCUUUUGAACAUGUUUUUCUCACUUAGGUCUCA,0.294
UUGACAUGAAGACGACUGUUCCGUUAUUGGGAAGUAAUCAGCUUUUGAAACUGAGAGUGUUGGGAAGGAUAUACUUACGUAAUGGAGCUGUCAAAGCCGAGAGACCAGCC,0.515
ACACGCAGGCGGGCGACGGAACUUGAAGGGUUAUUGACAUGCAAAUGCUGGUGUUUGAUUUCCUGUGUUGUUGCCUCAGCGUUAAGGGCAUUUCCGUUUGCAGUUCUACU,2.43
GAUUUCAUCUUCACCUACCAAGAGGCGGCCGCCUCCUUGGACAAGCCGCUCAUGGACCAUUAGACUUGAGAAGACGACCCACGUGGUGACUGCAAAGCCCUGGGUACUUG,0.408
GUCUUUUGAAUCUAAAAUCUUGGAAGAAACCAAAUUUUUCAAUGAUGCUAUUGAAACAUACAAAGGUAGACCUUUUGACUUUAAACAGUUAAUAACGAAUGCUGUUUCAA,0.388
AGUGCUUCCAAAUUCUUUUGGUGCAAUUGAGGAGAUAUGCCAGAUGCUUAAACACAUUUAAUUGCUGUCAGAUUAAUUCCAUGAUCACUAAAGAGUUGCUGCUUUUUUCA,0.289
CAAGCAAGUGGCUGCAGGGACACUGAUGCCACAGCUCCUGGGCCGGCCCUCACAUCUGAAACUGGUUGCCGAGAGCCCUGAGCCAAGGCAAGGAUUUGCCAAAAAUGUUC,0.188
ACUGCACCAGUGCCUGCUCAUUGAGGAGAGUAACUGCUGGCCAGGCAGAAAGAAUAUGGGCUCUGCAAUGAGACAGACCUGGAGGGGACUCUCCCGUUGAGCACUAGCAG,0.586
ACUGUGCUAGAUCUUCACUUCGGUGGCGAGUUAUAUCCUACAGCCCUGACACAUCAGGCAAUGAAUAAUGGGGCAGAUGACAGGCUGCUUGGUGUCAUUUUCAGGCGGGC,0.718
CUAGUCCCUCUCCUGCCACCUCUCCAAGACUUCCGUGGGACACCCACUUCCCUCUGUCCUAGUUCUCUUUGUCCAAUCAGAUGGCAAGGGCAGUGCGUGGAAAGGCCGGG,0.298
AGCCGCCCGCCCGCCGGUCCCCAGCCGGGCUCCGUUGGGUUUCCCAUUGUAAAUACUGCCUCGCCCCUCCUUUGAACUCCAGGGCAUCAGACCUCAAGGGGUAAACUGGA,0.408

# Sample 4 — technique: protein binding microarray; molecule type: double-stranded DNA, one strand shown; matrix: in vitro; concentration: not given; reference: not given; reading: higher = stronger binding
# Target: Histone acetyltransferase KAT6A, winged helix 2, GST fusion (KAT6A, Homo sapiens, UniProt Q92794, residues 85-181)
# Notes: 8-mer, flanks averaged, mean of 2 arrays, mostly near background
# Construct (chain): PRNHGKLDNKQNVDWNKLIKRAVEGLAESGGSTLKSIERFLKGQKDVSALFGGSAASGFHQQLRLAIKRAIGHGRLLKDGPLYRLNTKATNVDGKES
Oligonucleotide,E-score
AAGTGGTA,-0.125
AATAGCGC,-0.0399
ACGACCGT,-0.194
CAATTCTC,0.0306
ACGCAGCT,0.0582
CACCGTCG,0.117
CACGCAGG,0.131
GCCCGGGC,0.206
AATGGACG,-0.0212
ATCGACGA,0.151
CCCCGTCC,-0.087
CATGCTGA,0.0506
GCAAAGCC,0.109
AACACAGG,-0.141
AGCATAGC,-0.0287
AACCAGGG,0.0946

# Some of these lines once more (sample 1):
Oligonucleotide,E-score
GTGCTCGA,-0.183
ACAGGACG,-0.176
GAGCTAGA,-0.033
CCCGCGCG,-0.274
CATGCGGA,-0.244
ATCTAAGG,0.0121
AATGCCGA,-0.0379
ATGTGGGA,0.0253
ACGAGCGC,-0.206
CTCGCCAA,-0.0566
CCGTTAAC,-0.12
CGGTTGAA,0.00669
